Measurements gathered from unrelated publications.
Every numbered part comes from another study and shows a few of its results, in no order. Positions count from the first letter of the parent shown.

Series 1
Target: CCNF, cyclin fold, Cln2 fusion (human)
Method: yeast growth competition, sequencing
Matrix: yeast
Setting: strong parent motif
Baseline: not given
Reading: higher = stronger binding
Parent: CDKN1B docking peptide (human); PSACRNLFGPVDH
Variant | normalised enrichment score
PSACRCLFGPVDH [N6C] | 6.13
PSACRNLFIPVDH [G9I] | 3.08
PSACRALFGPVDH [N6A] | 5.79
PSACRNLFSPVDH [G9S] | 3.41
PSACRWLFGPVDH [N6W] | 2.12
PSAYRNLFGPVDH [C4Y] | 3.62
PSACRDLFGPVDH [N6D] | 2.6
PSACRNLFGPADH [V11A] | 7.08
PSACRNLFGPVDG [H13G] | 6.91
PSACRNLFGPVDC [H13C] | 7.1
PSFCRNLFGPVDH [A3F] | 6.14
PSACRNLFGPVDK [H13K] | 7.32
FSACRNLFGPVDH [P1F] | 8.06
PDACRNLFGPVDH [S2D] | 6.45
PSACRNLFGPDDH [V11D] | 6.94
PSACRNLFGPQDH [V11Q] | 6.24
PSACENLFGPVDH [R5E] | 0.346
PSACRNLFGHVDH [P10H] | 5.77

Series 2
Target: RNA binding protein fox-1 homolog 2, RRM domain, GST-SBP tag (RBFOX2, Homo sapiens, UniProt O43251-10, residues 100-194)
Method: RNA Bind-n-Seq
Form: RNA
Matrix: in vitro
Tested at: 365 nM
Setting: natural RNA segment, single round, ends assumed
Baseline: no-protein control
Reading: higher = stronger binding
Constant ends, left off below: GGGAGUUCUACAGUCCGACGAUC … UGGAAUUCUCGGGUGCCAA
Residues (chain): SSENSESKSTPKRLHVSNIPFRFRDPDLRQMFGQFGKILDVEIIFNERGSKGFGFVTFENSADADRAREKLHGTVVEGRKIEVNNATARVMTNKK
Sequence | RBNS enrichment (R)
UUAAUUAUUCUAACAGUUACCCAUUAACAGUCGACUCCUGUAUUUCUGAGAGUCUUGUACUCACCUCUGAAAUUUAAAAACGUAUAAAGAGAGCCUGGGUUAAUCAGUUC | 0.586
CUGCACUGUGCAGAAGAGCAGAUCCUAGUGCUGCUCUGGCAUUAAUCCCAGGAACCACUAGCAGUAGUGGGGCGCCACCAAUGUAACAUGAGCACAGGUGCCUCAUGGCA | 0.256
CUUCUCUUGUCACACAGUGCCCCUUCCCCACGUGUCCUGUGGCUCCAGCCAUUACAGAGUGAAGGUGCAACCCCAUGUGGGAGCCCCACUAGUGACCACUCCCUGAGAGG | 0.206
AUUUCAGUCUUAAAGUGUGACUUGUAAGGAGCCAAGCUGUACAGUUUAGUUCAUGAUGGCAGCUCUCUGCCUCUUCAGAAAGUAUAUAUCAUAGUGGUAAAUAAUGUAGA | 0.459
UGUCACUGAAUGAACCUUAUCGGGCAUAACUACAUGAAAAUGCAGUGACAGCUGAGUGUGCUGUGUCUCACACUAUCACCCGUCAUCAGGAUGUCUCUCCUUCCUUACUG | 0.289
UGAAUGGAAUAUAACAAUUCAGCUUAAUUCCCCAACCUUAUUCUGUGUGUAGACAUUGUAUUCCACAAUUUUGAAUGGCUGUGUUUUACCUCUAAAUAAAUGAAUUCAGA | 0.475
AGGUGAGGGCUUUGUACACGUGUGUCCUCUGCUGUCAUGAACUUGGGCUGGACUGUGAGCAGCUCUGGGUUAAUACAGGGCAGGCAAUCCUUAAACAGCUAGCAUGAAAC | 8.93
AUUUAAGUUCCUGCUGCCUGGGUAGGCCCCACAAGGCCUGGUCUGGGAGUAUACGGAAACAAAAAUGAUCCUCAGUGCAAAAUGUCUUGUGUAUUUCUCUGUGAAUCCAU | 0.387
GACUGCCAGGAUUCCUGAUAUGCCCUGGCUUUGGAGAGUCCCUAGGGAUGCCCACUCGGGGGUGUAGGGAAGACACUGGCUGUGCGUCCUUCUAGGAAGGGGCUUUCAGG | 0.338
CCUGGCCUCUGUCCACCCGUCAGCAGUGUGAAGUCUGUUGUGUUUGAGCUUCUCAGAGUGGAAUGACUCCUUUUCCUUCCUGGCCCUCGGGGGCCUCUCGAGGUCAGCCU | 0.287
ACACACCAGCUCCUGUUGGGAUGGAUGGCCCGGAUUUUAUGGCAUCUGGAACAUGGGCACAGAGAGGGGCCUGUGGGAGGGGCUGGGAAAAUAAAGUCCAAGGUCGAGAC | 0.848
AUUCAUAGCCCCGUCACAGGAAGUGGGAGAUGCUCCUUUUUGUCCCAGACUGGAAAUCCAUCACAUCCCAAGGCUCCUUGGCAGUCAUCUGUCUGUGUGGCUUGUUCUGU | 0.217

Series 3
Target: RING finger protein unkempt homolog, zinc fingers 1-6, GST-SBP tag (UNK, Homo sapiens, UniProt Q9C0B0, residues 30-357)
UniProt Q9C0B0, sequence (30-357, looked up): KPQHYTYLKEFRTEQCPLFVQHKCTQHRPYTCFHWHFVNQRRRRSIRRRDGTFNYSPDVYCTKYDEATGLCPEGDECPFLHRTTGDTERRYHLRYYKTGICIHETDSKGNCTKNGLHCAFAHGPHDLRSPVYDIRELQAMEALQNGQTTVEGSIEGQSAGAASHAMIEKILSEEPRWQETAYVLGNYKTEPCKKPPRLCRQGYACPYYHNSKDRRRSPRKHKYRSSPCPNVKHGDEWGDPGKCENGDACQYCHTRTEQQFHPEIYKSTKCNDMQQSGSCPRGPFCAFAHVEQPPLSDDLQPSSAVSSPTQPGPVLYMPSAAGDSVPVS
Method: RNA Bind-n-Seq
Form: RNA
Matrix: in vitro
Tested at: not given
Setting: RNA with constant flanks, human and mouse sites, ends assumed
Baseline: input RNA pool
Reading: higher = stronger binding
Constant ends, left off below: GGGAGUUCUACAGUCCGACGAUC … CAACAGAGGAUUGAGCAUCA
Sequence | bound/input enrichment [ratio]
UGGAUUAUAUGGGAAUGGCUUCAAGUCGGGUUCUAUGCGUCUGGGUAAAGACGCAAUCGUUUUUACCAAAAAUGGAGAAAGCAUGAGCGUGGGCCUUUUGUCUCAGACCUACUUGGAAGU | 0.334
CUGAACAGCUACUAUUCCCAGCAGGGGGUUCCAGCCAGCAUCACAUUUUUUAGUCCCUCUGGCCUCACAUACAGUCUCAAGCACAUUCAGGAGUUAUCUGGUGACAAUAUCGAUCAAAUU | 0.671
UUUUGAAAACGAACUUCUCUAGCUACACAGAAGUAACAAAAUAUGUUAGUCAGUUUUGUAUUUAGAAAUGUAUUGGUAGCAGGGAUGUUUUCAUAAUUUUCAGAGAAUAUGCAUUCUUCA | 0.561
UGUCAGGGUCAUCUCCAGCCUUUAGGGGACAGACCACGCCAGCUCCUUGUUCUCACCUUUUUGCCUUGGAACACAUGAGGAUUGUCAUUGACAAAACAAGCUUUUCAUUUUCAACUCCUG | 0.139
GCCUCAGCUUCCACCCCCAGCACUACGUAUGGAAAAUUAGGGAGAUUAGAGAAACCACCUAAUUGCUGGGUCAGCCAGUGGAGGACAGCUGAGCAUCCAAGAGCCAGGCCCUGACCACCG | 0.293
CCAAAAUCUAUUCUUCAGUUGCCAGAGACAGAACUGGGAGAAUAUUCCCUAGGGGGCUAUAGCAUUUCAUUUCUGAAGCAGCUUAUUGCUGGCAAGCUCCAGGAAUCUGUUCCAGACCCG | 0.316
GAAUACCAUCUGGCUGAUCUUGCAUCCUUAAUGGACAAAGCGUAUGAAAGAAAAUUGCCUGUUAGUUCUUUAUCAAUAUCACGGUUUGUGGACAACAUUGCAUCCCGAGAAGAUCUAGAU | 0.809
ACUGUGACCUAAGAACAAAACUGUAACUGCAUUAGAAACCAUGAAAAAAUUAGAUAUUGUUUUGUGACUUUUAGACAGUGGUAAAUAUAGAACCAUGAAUUCUGGUCACAUUCCAUUUCU | 14.6
CAUUGAAGAUGAUGAUGAUGGAGAAUUAGCCCUGUGGUCUCCUGAAGUCAAGACUGUGGAGCUGGUGAAAGACUGCAAAGGCUUAGGAUUCAGUAUUUUGGAUUAUCAGGACCCCCUGGA | 0.827
UAUCCAAAUCUAAACAUGAUUGAGACAUUCAUAUGUCAAGUGUGUGAGGAAACCCUUGCACAUAGUGUGGAUUCCCUUGAGCAGCUGACUGGAAUAAGGAUGCUUAGACACCUCACUAUG | 0.264
CAACUGUUGUGAUGAAAAUGGCACCAGGAAGAAGGCUCUAUUUUUCCACUGAAGUUGAAGAUUAGUAAAAUGGUGUCAGAUGGUGACCCUGCUCGCACGCUUUAGUAAUUUUUUAAAGUG | 3.79

Series 4
Target: ABI1, truncated, D143A, DHFR fusion (Arabidopsis thaliana)
Method: DHFR PCA, deep sequencing
Matrix: yeast
Setting: methotrexate growth selection, single substitutions
Added: (+)-ABA 0.11 µM
Baseline: wild-type fitted maximum
Reading: higher = stronger binding
Parent: PYL1, truncated, DHFR fusion (Arabidopsis thaliana); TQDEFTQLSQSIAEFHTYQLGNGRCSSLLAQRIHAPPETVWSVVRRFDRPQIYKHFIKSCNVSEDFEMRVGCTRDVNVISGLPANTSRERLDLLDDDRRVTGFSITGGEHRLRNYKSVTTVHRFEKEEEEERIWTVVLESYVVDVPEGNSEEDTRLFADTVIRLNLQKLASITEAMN
Variant | relative binding score
E4I | 43.6%
A175E | 34.8%
L164Q | 12.5%
I52G | 2.68%
T101E | -2.72%
E131V | 34.7%
T6M | 45.1%
T135D | 0.1%
R24L | 7.71%
N22W | 5.81%
D159A | -0.917%
N22A | 46.9%
D48W | -6.91%
H122S | -2.9%
L156V | 15.9%
L28H | 0.341%
E4A | 18.4%
D159R | -6.49%
N114C | -3%
Y141R | -3.05%
